Measurements collected from several papers.
Compare with care: the assays were run in different laboratories. Several values in a cell are separate wells, animals, samples, runs or records. ± gives the spread as reported.

Compound | test | system | setting | how to read | quantity | value
Brc1ccc(Oc2cc(Br)c(Br)cc2Br)c(Br)c1 |  | cow whole milk | 200 nM | relative to: milk fat over skim milk | milk fat partition ratio | 250
C[C@]1(CO)Cc2ncn(-c3ccc(C#N)c(Cl)c3)c2C(=O)O1 |  | human | 10 mg, European food-effect part, fasted |  | drug-related abnormal skin odour | 0%
CN1CCN(S(=O)(=O)c2cc([N+](=O)[O-])ccc2N(CCOS(C)(=O)=O)CCOS(C)(=O)=O)CC1 |  | NOD/SCID mouse, naive, blood | intraperitoneal, 6.3 mg/kg, week 2 |  | hemoglobin | 166 g/L and 150 g/L and 148 g/L
COC[C@@]12CC[C@H](OC)[C@]34C(C([C@H](OC)[C@H]13)[C@]1(OC(C)=O)[C@H]3[C@@H](OC(=O)c5ccccc5)[C@](O)(C[C@H]34)[C@@H](OC)[C@@H]1O)N(C)C2 |  | Sprague-Dawley rat, plasma | oral, dose not given, with H in PCW extract |  | Tmax | 45 min
COc1ccc(C[C@@H]2NC(=O)[C@H]([C@@H](C)O)NC(=O)[C@@H]3[C@@H]4CCN3C(=O)[C@@H]3Cc5cn(c6ccc(F)cc56)CCCCCCN(Cc5ccc(cc5)CCNC(=O)[C@]5(C)CCCN5C2=O)C(=O)CCC(=O)N[C@@H](C)C(=O)N[C@H](CNC(=O)CCCCC[N+](C)(C)C)C(=O)N[C@@H](Cc2cccc(c2)CNC(=O)CO4)C(=O)N3)cc1 | item: Vomiting | humans | concentration not given, Study-001 |  | participants with adverse event | 2%
C[C@@H]1NC(=O)[C@H](CCCCNC(=O)CO/N=C/C(=O)NCCCC[C@@H]2NC(=O)[C@@H](Cc3ccccc3)NC(=O)[C@H](CC(=O)O)NC(=O)CNC(=O)[C@H](CCCNC(=N)N)NC2=O)NC(=O)CNC(=O)[C@@H]2CCCN2C(=O)[C@H](CCCCNC(=O)CO/N=C/C(=O)NCCCC[C@@H]2NC(=O)[C@@H](Cc3ccccc3)NC(=O)[C@H](CC(=O)O)NC(=O)CNC(=O)[C@H](CCCNC(=N)N)NC2=O)NC(=O)[C@H](CCCCNC(=O)CN2CCCNCCNCCCNCC2)NC(=O)[C@H](CCCCNC(=O)CO/N=C/C(=O)NCCCC[C@@H]2NC(=O)[C@@H](Cc3ccccc3)NC(=O)[C@H](CC(=O)O)NC(=O)CNC(=O)[C@H](CCCNC(=N)N)NC2=O)NC(=O)CNC(=O)[C@@H]2CCCN2C(=O)[C@H](CCCCNC(=O)CO/N=C/C(=O)NCCCC[C@@H]2NC(=O)[C@@H](Cc3ccccc3)NC(=O)[C@H](CC(=O)O)NC(=O)CNC(=O)[C@H](CCCNC(=N)N)NC2=O)NC1=O [copper-64 labelled] |  | normal mice, lung | intravenous, 0.74 MBq, 3 h post-injection |  | tissue uptake | 1.98 ± 0.21 %ID/g
CN1CC[C@@H](c2c(O)cc(O)c3c(=O)cc(-c4ccc(C(F)(F)F)cc4Cl)oc23)[C@@H]1CO | item: Syncope | relapsed AML | oral, 100 mg, grade 3-4, intermittent dosing |  | patients with adverse event | 0%
CC(=O)c1c(C)c2cnc(Nc3ccc(C4CCN(CCS(C)(=O)=O)CC4)cn3)nc2n(C2CCCC2)c1=O |  | HR+/HER2- advanced breast cancer patients | oral, dose not given, all grades, dose escalation, sample B patients |  | patients with leukopenia | 78.9%
CC(C)n1c(C2CCNCC2)nc2c([N+](=O)[O-])c(Br)c(Br)cc21 | item: Anemia | AML patients | dose not given, all doses |  | grade ≥3 adverse events | 29%
O[C@H]1CCCN[C@@H]1CCCn1cnc2c(Cl)c(Cl)ccc21 |  | healthy humans, plasma | oral, 150 mg twice daily |  | AUCtau | 1270 ng·h/mL
C[C@@H](c1nc(-c2ccc(C#N)cc2)cs1)[C@](O)(Cn1cncn1)c1cc(F)ccc1F | item: contact dermatitis | humans | oral, dose not given, with: midazolam |  | subjects with TEAEs | 8.7%
O=S(=O)(Nc1ccccc1)c1ccc(NC(=S)Nc2ccccc2)cc1 | item: BUN | male mouse, blood | oral, 20 mg/kg daily, 14 days |  | blood chemistry level | 18.5 mg/dL
CC[C@H](C)CCCCC(=O)N[C@@H](CCN)C(=O)N[C@H](C(=O)N[C@@H](CCN)C(=O)N[C@H]1CCNC(=O)[C@H]([C@@H](C)O)NC(=O)[C@H](CCN)NC(=O)[C@H](CCN)NC(=O)[C@H](CC(C)C)NC(=O)[C@@H](Cc2ccccc2)NC(=O)[C@H](CCN)NC1=O)[C@@H](C)O |  | critically ill survivors, plasma | intravenous, 2.1 mg/kg/day, 6 h, median |  | concentration at steady state | 3000 ng/mL
N#C[C@@H]1CC(F)(F)CN1C(=O)CNC(=O)c1ccnc2ccc(OCCCN3CCN(C(=O)CN4CCN(CC(=O)[O-])CCN(CC(=O)[O-])CC4)CC3)cc12.[18F-].[Al+3] |  | healthy rat, large intestine | iv, 2 h |  | tissue uptake | 1.66 ± 0.2 %ID/g
O=C(Nc1ccccc1)C1CCN(C(=O)Oc2cccnc2)CC1 | psychotropic effects VAS | healthy women | 100 mg | relative to: pre-dose baseline, direction not given | change in High score | 3.3
CCc1ccc(CC/C=C/c2ccc3c(c2)C(=O)CC3)cc1 |  | Sprague-Dawley rat, male | oral, 120 mg/kg/day, 14 days |  | Neutrophil percentage | 14.7%
C[C@H]1C[C@@H](N2C(=N)N[C@](C)(c3cccc(NC(=O)c4cccc(C#N)c4)c3Cl)CC2=O)CCO1 |  | Han Wistar rat male | oral, 1000 mg/kg, 7 days |  | total Cmax | 12100 ng/mL
COc1cc2c(Oc3ccc4[nH]c(C)cc4c3F)ccnc2cc1OCC1(N)CC1 |  | paediatric recurrent refractory sarcoma | 8 mg/kg |  | grade 1 or 2 Hypothyroidism | 60%
Cc1cc(C)c(CNC(=O)c2cc(Cl)c3c(c2C)O[C@@](C)([C@H]2CC[C@H](N(C)C)CC2)O3)c(=O)[nH]1 |  | human, relapsed/refractory NHL | concentration not given, treatment-related TEAEs, grade 5 |  | Hyperglycaemia incidence | 0%
COc1ccc(-c2c(-c3ccc(C#N)c(F)c3)nc(N3CCC(N)CC3)n(C)c2=O)cc1F | item: Pyrexia | human patients | oral, 60 mg, dose expansion |  | serious adverse event incidence | 0%
CCN1[C@@H](C(=O)NC23CCC(C(=O)O)(CC2)CC3)[C@H](c2cccc(Cl)c2F)[C@]2(C(=O)Nc3cc(Cl)ccc32)C12CCCCC2 |  | patients with advanced solid tumours | oral, 100 mg |  | Dizziness incidence | 9.1%
Nc1nc2cc(-c3ccc4ncc(C(=O)N5CCOCC5)n4c3)ccc2o1 | item: Vomiting, any cause, all grades | patients with advanced solid tumours | dose not given |  | patients with adverse events | 59%
C[C@]1(O)C[C@@](N)(c2ccc(-c3nc4n(c3-c3ccccc3)COc3ccncc3-4)cc2)C1 |  | human, advanced or metastatic solid tumours | 28 mg intermittent, phase I dose escalation |  | patients with Nausea TEAE | 33.3%
Cn1c(-c2ccc(C(N)=O)cc2F)nnc1C(C)(C)Oc1c(F)cc(Cl)cc1F |  | human | oral, 1 mg, single ascending dose, incl. administration site |  | general disorder TEAE | 16.7%
CO[C@H]1C[C@@H]2CC[C@@H](C)[C@@](O)(O2)C(=O)C(=O)N2CCCC[C@H]2C(=O)O[C@H]([C@H](C)C[C@@H]2CC[C@@H](OC(=O)NCCOCCOCCOCCOCCOCCOCCOCCOCCC(=O)N3CCc4cc(Cn5nc(-c6ccc7oc(N)nc7c6)c6c(N)ncnc65)ccc4C3)[C@H](OC)C2)C[C@@H](O)[C@H](C)/C=C(\C)[C@@H](O)[C@@H](OC)C(=O)[C@H](C)C[C@H](C)/C=C/C=C/C=C/1C |  | patients with advanced solid tumours | intravenous, 8 mg weekly, any grade |  | vomiting incidence | 31.3%
O=c1cc(-c2ccc(O)c(O)c2)oc2cc(O)cc(O)c12 |  | male Sprague-Dawley rat, obese | oral, 100 mg/kg of neohesperidin, 12 to 24 h, after β-glucuronidase/sulfatase hydrolysis |  | urinary excreted amount, total | 29.1 ± 6.67 ng
O=C(O)CCCOc1ccc(F)cc1-c1cc(-c2ccccc2C(F)(F)F)n(-c2ccccc2)n1 | item: β-glb | Crl:CD(SD) rats, female, serum | iv, 25 µg/kg, 14 days |  | serum protein fraction | 14 ± 2.3%
C[C@@H](NC(=O)N1C(=O)[C@H](Cc2ccnc(N)c2)[C@H]1C(=O)O)C1CCCCC1 |  | healthy Chinese adult volunteers | continuous intravenous infusion, dose not given, 5.0 days, CTCAE 5.0, all doses |  | urine erythrocyte positive | 2.5%

Some of these lines once more:
Compound | test | system | setting | how to read | quantity | value
Nc1nc2cc(-c3ccc4ncc(C(=O)N5CCOCC5)n4c3)ccc2o1 | item: Vomiting, any cause, all grades | patients with advanced solid tumours | dose not given |  | patients with adverse events | 59%
C[C@]1(O)C[C@@](N)(c2ccc(-c3nc4n(c3-c3ccccc3)COc3ccncc3-4)cc2)C1 |  | human, advanced or metastatic solid tumours | 28 mg intermittent, phase I dose escalation |  | patients with Nausea TEAE | 33.3%
